Measured values from different studies.
A part holds a random share of what one study measured.

Sample 1
Target: Sal-like protein 4, full length isoform A (SALL4, Homo sapiens, UniProt Q9UJQ4, residues 1-1053)
Sequence of UniProt Q9UJQ4 (whole entry, looked up): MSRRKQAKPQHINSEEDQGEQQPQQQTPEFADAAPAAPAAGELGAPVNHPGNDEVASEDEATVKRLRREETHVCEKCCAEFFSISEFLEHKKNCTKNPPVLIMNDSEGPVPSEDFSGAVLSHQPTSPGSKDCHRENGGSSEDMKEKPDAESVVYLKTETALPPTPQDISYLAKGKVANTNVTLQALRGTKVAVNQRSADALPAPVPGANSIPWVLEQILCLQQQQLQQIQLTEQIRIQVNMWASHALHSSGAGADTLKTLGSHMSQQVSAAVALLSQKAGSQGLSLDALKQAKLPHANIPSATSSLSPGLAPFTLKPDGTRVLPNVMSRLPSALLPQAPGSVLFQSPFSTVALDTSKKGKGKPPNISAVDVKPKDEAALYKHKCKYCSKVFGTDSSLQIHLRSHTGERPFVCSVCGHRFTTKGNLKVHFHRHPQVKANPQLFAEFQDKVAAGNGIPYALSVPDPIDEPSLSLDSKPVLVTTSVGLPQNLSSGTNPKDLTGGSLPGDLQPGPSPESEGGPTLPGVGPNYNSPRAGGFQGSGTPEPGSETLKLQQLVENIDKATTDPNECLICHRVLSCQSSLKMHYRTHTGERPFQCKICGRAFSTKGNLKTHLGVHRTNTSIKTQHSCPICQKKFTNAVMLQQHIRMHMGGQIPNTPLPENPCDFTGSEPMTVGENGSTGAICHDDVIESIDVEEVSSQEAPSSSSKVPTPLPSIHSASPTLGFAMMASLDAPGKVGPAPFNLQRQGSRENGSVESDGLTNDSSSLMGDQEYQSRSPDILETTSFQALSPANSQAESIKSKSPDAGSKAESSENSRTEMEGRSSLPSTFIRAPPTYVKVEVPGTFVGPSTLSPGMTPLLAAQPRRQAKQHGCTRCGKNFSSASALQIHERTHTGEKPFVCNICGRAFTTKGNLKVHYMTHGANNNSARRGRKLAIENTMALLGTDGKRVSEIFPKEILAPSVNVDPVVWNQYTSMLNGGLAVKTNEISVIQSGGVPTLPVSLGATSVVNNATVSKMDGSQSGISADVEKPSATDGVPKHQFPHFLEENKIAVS
Method: universal PBM
Molecule type: double-stranded DNA, one strand shown
Medium: in vitro
Concentration: 600 nM
Setting: 8-mer, flanks averaged, mean of replicates
Reading: higher = stronger binding
The E-score of `ACGACAAC` is reported as -0.0667.
The E-score of `CGTTGGAG` is reported as -0.212.
`AGTGTCCC` has an E-score of -0.246.
With `GGATGCCC` the E-score was -0.4.
The E-score of `AACAGGAT` is reported as -0.0309.

Sample 2
Target: Histone acetyltransferase KAT6A, winged helix 1, GST fusion (KAT6A, Homo sapiens, UniProt Q92794, residues 1-85)
Method: protein binding microarray
Molecule type: double-stranded DNA, one strand shown
Medium: in vitro
Concentration: not given
Setting: 8-mer, flanks averaged, mean of 2 arrays, mostly near background
Reference: not given
Reading: higher = stronger binding
Construct (chain): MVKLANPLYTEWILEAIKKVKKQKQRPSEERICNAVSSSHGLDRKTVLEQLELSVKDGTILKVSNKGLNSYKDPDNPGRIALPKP
For `ACAGGAAT`, the E-score was -0.24.
The E-score of `ATCATCCC` is reported as -0.0474.
`AGCACCGC` gave an E-score of 0.26.
`CAATTATC` gave an E-score of 0.12.
`ACAGTAGG` has an E-score of -0.18.

Sample 3
Target: Interferon regulatory factor 7, full length, phosphomimetic (IRF7, Homo sapiens, UniProt Q92985, residues 1-503, S471D/S472D/S475D/S476D/S477D/S483D/S484D/S487D)
Sequence of UniProt Q92985 (whole entry, unmodified, looked up): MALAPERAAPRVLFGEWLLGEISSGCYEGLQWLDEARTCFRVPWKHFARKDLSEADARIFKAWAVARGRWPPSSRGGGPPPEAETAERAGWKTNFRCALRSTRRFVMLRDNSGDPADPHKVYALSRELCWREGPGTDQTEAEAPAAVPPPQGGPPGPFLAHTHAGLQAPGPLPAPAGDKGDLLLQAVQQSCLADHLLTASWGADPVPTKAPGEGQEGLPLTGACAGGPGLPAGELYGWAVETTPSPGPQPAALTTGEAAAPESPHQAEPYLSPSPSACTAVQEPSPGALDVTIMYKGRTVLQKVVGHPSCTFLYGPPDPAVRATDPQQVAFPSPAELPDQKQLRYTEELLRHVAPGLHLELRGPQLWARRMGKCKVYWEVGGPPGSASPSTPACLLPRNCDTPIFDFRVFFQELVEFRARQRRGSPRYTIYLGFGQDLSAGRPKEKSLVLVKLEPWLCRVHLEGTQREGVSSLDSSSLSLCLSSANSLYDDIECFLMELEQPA
Method: protein-binding microarray
Molecule type: double-stranded DNA, one strand shown
Medium: in vitro
Concentration: 2200 nM top
Setting: 60-bp whole probe
Together with: salmon DNA 0.4 mg/ml
Reference: random background probes
Reading: higher = stronger binding
Constant ends, left off below: GCCTAGCAC … GTGCTAGGTCTTGATTCGCTTGACGCTGCTG
For `TTAGGTTTCGGACTGAGTTA`, “fitted relative affinity” read 2.52 z-score.
Under “fitted relative affinity”, `TTAGGATTCGGTCTCGGTTA` is recorded as 1.63 z-score.
Under “fitted relative affinity”, `GACCTCGTCTCTATCAAAAA` is recorded as 0.491 z-score.
`TTAGGTCTCGGTCTCAGTTA` — result for “fitted relative affinity”: 0.461 z-score.
`TCATGTGTATATATAATACT` — result for “fitted relative affinity”: 0.674 z-score.
`TTAGCTCTCCTTATCCTTTA`: “fitted relative affinity” 1.52 z-score.

Single results of other studies
`PhoQ, residues 284 288 289 292 302 303 SVTLVV` gave a fold induction of 4.69 (PhoP, residues 12 14 15 18 19 NMSFL (Escherichia coli, UniProt P23836); Sort-seq, item: YFP reporter; E. coli; PhoQ-PhoP variant library, together with: 10 µM Mg2+; reference: high Mg2+ state, higher = stronger signaling).

Excerpt of the above (sample 3):
For `TTAGGTTTCGGACTGAGTTA`, “fitted relative affinity” read 2.52 z-score.
Under “fitted relative affinity”, `TTAGGATTCGGTCTCGGTTA` is recorded as 1.63 z-score.
